Published values of several laboratories.
Compare with care: the assays were run in different laboratories. Several values in a cell are separate wells, animals, samples, runs or records. Numbers after ± are the reported error.
USP20 ZnF-UBD domain: Ubiquitin carboxyl-terminal hydrolase 20, ZnF-UBD domain (USP20, Homo sapiens, UniProt Q9Y2K6)
UniProt Q9Y2K6, sequence (whole entry, looked up): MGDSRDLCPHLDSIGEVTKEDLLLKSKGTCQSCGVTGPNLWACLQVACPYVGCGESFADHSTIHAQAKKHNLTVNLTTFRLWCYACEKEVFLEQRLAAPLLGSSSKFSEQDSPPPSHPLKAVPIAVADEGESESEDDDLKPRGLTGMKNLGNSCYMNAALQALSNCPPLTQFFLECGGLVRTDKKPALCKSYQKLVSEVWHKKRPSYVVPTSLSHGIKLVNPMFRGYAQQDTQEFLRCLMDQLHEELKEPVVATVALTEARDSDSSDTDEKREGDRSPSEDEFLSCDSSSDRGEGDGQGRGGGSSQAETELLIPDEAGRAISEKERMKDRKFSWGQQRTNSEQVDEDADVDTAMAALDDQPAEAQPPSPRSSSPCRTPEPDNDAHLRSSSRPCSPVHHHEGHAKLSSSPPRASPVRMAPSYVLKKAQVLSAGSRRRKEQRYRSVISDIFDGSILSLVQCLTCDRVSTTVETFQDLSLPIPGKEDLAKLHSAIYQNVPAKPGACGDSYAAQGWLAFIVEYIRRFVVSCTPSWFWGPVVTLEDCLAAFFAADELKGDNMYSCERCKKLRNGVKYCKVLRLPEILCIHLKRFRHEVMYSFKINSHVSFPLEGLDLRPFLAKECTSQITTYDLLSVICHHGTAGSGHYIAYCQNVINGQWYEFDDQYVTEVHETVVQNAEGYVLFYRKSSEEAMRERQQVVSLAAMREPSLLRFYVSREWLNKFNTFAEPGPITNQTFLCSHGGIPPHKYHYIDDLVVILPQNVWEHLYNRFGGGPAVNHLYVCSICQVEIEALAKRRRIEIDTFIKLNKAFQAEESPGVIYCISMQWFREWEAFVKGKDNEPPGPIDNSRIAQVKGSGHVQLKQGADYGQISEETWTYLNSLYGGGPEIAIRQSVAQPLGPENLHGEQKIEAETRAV

Cc1c(C(=O)O)ccc2c3n(nc12)[C@@H]1[C@H](C3)N(CC2CC2)[C@@]2(C(=O)Nc3cc(Cl)ccc32)[C@H]1c1cccc(Cl)c1F — MRT total (Göttingen minipig, female, plasma; oral, 2 mg/kg): 19.6 h
C=CCNc1nc(C)c(-c2ccnc(Nc3cccc([N+](=O)[O-])c3)n2)s1 — logD (octanol/buffer; 67 µM, pH 7.4): > 4.5
CNCCOC12CC3(C)CC(C)(CC(Cn4ncc(-c5ccc(N6CCc7cccc(C(=O)Nc8nc9ccccc9s8)c7C6)nc5C(=O)O)c4C)(C3)C1)C2 — dP/dt at 50 change (beagle dog, male, anaesthetised; intravenous bolus, 0.03 mg/kg, 15 min; reference: baseline): 10%
CN1CCCC1CCNS(=O)(=O)c1ccc2c(c1)CN(CC1CCCCC1)CC2 (stereo not shown) — Cmin (wild-type mouse, plasma; oral in diet, 0.0002% in diet, 6 months): 0.148 ng/mL
CN(CCC(=O)O)C(=O)c1ccc2c(c1)CC[C@@H]1[C@@H]2CC[C@]2(C)C(c3cncc(F)c3)=CC[C@@H]12 — total bilirubin change (premenopausal women, endometriosis pain, serum; 60 mg twice daily, visit 4, mean; reference: baseline): 0.827 mg/dL
CCc1c2c(nc3ccc(OC(=O)N4CCC(N5CCCCC5)CC4)cc13)-c1cc3c(c(=O)n1C2)COC(=O)[C@]3(O)CC — tissue concentration (mouse FVB, colon; intraperitoneal, 50 mg/kg, 24 h): 17100 ± 5050 ng/g
O=C(O)CNc1ccc2nncn2n1 — Kd (USP20 ZnF-UBD domain): 882 µM
Cc1cc(NC2CCN(C(=O)OC3CCN(C(=O)/C=C/CN(C)C)C3)CC2)n2ncc(C(C)C)c2n1 (stereo not shown) — patients with adverse event (Phase I dose escalation CTCAE v4.0, refers to: urinary tract infection; patients with advanced solid tumours; dose not given, TIW dosing any grade): 18%
NC1(C(=O)N[C@@H](CCO)c2ccc(Cl)cc2)CCN(c2nc[nH]c3nccc2-3)CC1 — likelihood of grade >=2 diarrhea (human patients aged >=sample A years; 400 mg): 39.8%
CC(C)[C@H](NC(=O)[C@H](Cc1ccc(O)cc1)NC(=O)[C@H](Cc1ccc(O)cc1)NC(=O)[C@@H]1CCCN1C(=O)[C@H](CCC(=O)O)NC(=O)[C@H](CCC(=O)O)NC(=O)[C@H](Cc1c[nH]c2ccccc12)NC(=O)[C@@H]1CCCN1C(=O)[C@@H](NC(=O)[C@H](CCC(N)=O)NC(=O)c1ccc2c(c1)C(=O)OC21c2ccc(O)cc2Oc2cc(O)ccc21)C(C)C)C(=O)N[C@H](C(=O)N[C@@H](CCCCN)C(=O)N[C@@H](CCCCN)C(=O)N[C@@H](CO)C(=O)N[C@@H](CO)C(=O)NCC(=O)NCC(N)=O)C(C)C — plasma concentration (human, plasma; intravenous infusion, 400 mg, 2 h): 193 ng/mL
CC[C@]1(O)C[C@H]2CN(CCc3c([nH]c4ccccc34)[C@@](C(=O)OC)(c3cc4c(cc3OC)N(C=O)[C@H]3[C@@](O)(C(=O)OC)[C@H](OC(C)=O)[C@]5(CC)C=CCN6CC[C@]43[C@@H]65)C2)C1 — viability (CHP-212 resistant subline R2 (heterozygous USP7 V517F); cell viability; 41.15 nM): 28.4% and 38.6% and 25.6%
C[C@H]1OC[C@@H](c2ccc(-c3ccccn3)cc2)N[C@@H]1c1ccc(F)cc1Cl — logD (shake-flask, 1-octanol/buffer; pH 7.4): > 4.7
CC[C@H](C)[C@H](NC(=O)[C@H](Cc1ccccc1)NC(=O)[C@H](CCC(=O)O)NC(=O)[C@H](CCCCNC(=O)COCCOCCNC(=O)COCCOCCNC(=O)CC[C@H](NC(=O)CCCCCCCCCCCCCCCCC(=O)O)C(=O)O)NC(=O)[C@H](C)NC(=O)[C@H](C)NC(=O)[C@H](CCC(N)=O)NC(=O)CNC(=O)[C@H](CCC(=O)O)NC(=O)[C@H](CC(C)C)NC(=O)[C@H](Cc1ccc(O)cc1)NC(=O)[C@H](CO)NC(=O)[C@H](CO)NC(=O)[C@@H](NC(=O)[C@H](CC(=O)O)NC(=O)[C@H](CO)NC(=O)[C@@H](NC(=O)[C@H](Cc1ccccc1)NC(=O)[C@@H](NC(=O)CNC(=O)[C@H](CCC(=O)O)NC(=O)C(C)(C)NC(=O)[C@@H](N)Cc1cnc[nH]1)[C@@H](C)O)[C@@H](C)O)C(C)C)C(=O)N[C@@H](C)C(=O)N[C@@H](Cc1c[nH]c2ccccc12)C(=O)N[C@@H](CC(C)C)C(=O)N[C@H](C(=O)N[C@@H](CCCNC(=N)N)C(=O)NCC(=O)N[C@@H](CCCNC(=N)N)C(=O)NCC(=O)O)C(C)C — QTcF change from baseline (12-lead Holter ECG; healthy humans; subcutaneous, 1.5 mg once weekly, 24 h, steady state; reference: placebo): 0 ms
CN(C)C/C=C/C(=O)Nc1cc2c(Nc3ccc(F)c(Cl)c3)ncnc2cc1O[C@H]1CCOC1 — cysteine adduct formation (PBS; 100 µM, 23 h, pH 8, 37 °C, together with: cysteine 10 mM): 95%
O=C(O)CCc1cnccn1 — Kd (USP20 ZnF-UBD domain): > 1000 µM
CC(C)C[C@H](NC(=O)[C@@H](Cc1c[nH]c2ccccc12)NC(=O)[C@H](Cc1ccc(O)cc1)NC(=O)[C@H](CO)NC(=O)[C@H](Cc1c[nH]c2ccccc12)NC(=O)[C@H](Cc1c[nH]cn1)NC(=O)[C@@H]1CCC(=O)N1)C(=O)N[C@@H](CCCNC(=N)N)C(=O)N1CCC[C@H]1C(=O)NCC(N)=O — patients, drug-related Overweight TEAEs (Chinese CPP girls; intramuscular, 22.5 mg, 12 months, day 1, month 6): 0%
Cc1cc(Nc2ccc(S(F)(F)(F)(F)F)cc2)n2nc(C(C)(F)F)nc2n1 — AUC(0-168 h) (Plasmodium falciparum; LC-MS/MS; malaria patients, plasma; oral, 400 mg): 638 µg·h/mL
O=C(Nc1cnccc1Cl)N1CCN(Cc2ccc3c(c2)OC(F)(F)O3)CC1 — adverse event incidence (refers to: Dizziness; human healthy young men; 25 mg, multiple dose): 0%
N=C(N)NCCC[C@@H](NC(=O)CCOCCOCCNC(=O)[C@H](CCCCNC(=O)CC[C@H](NC(=O)c1ccc(NCc2cnc3nc(N)[nH]c(=O)c3n2)cc1)C(=O)O)NC(=O)CO/N=C/[C@H](F)[C@@H](O)[C@H](O)[C@H](O)CO)C(=O)NCC(=O)N[C@H](CC(=O)O)C(N)=O [fluorine-18 labelled] — tissue uptake (nude mouse, female, blood; intravenous, 1 µg, 2.5 h): 0.51 ± 0.15 %ID/g
CC(C)(C(=O)N1CCOc2c(C#N)cncc2C1)C(F)F — subjects with TEAE (refers to: medical device site dermatitis; healthy humans, both sexes; oral, 40 mg single dose): 0%
COc1cc(Nc2ncc3c(n2)-c2ccc(Cl)cc2C(c2c(F)cccc2OC)=NC3)ccc1C(=O)O — decreased lymphocyte count incidence (patients; oral, dose not given, grade 3, any attribution, together with: pembrolizumab): 38%
NC(=O)N1c2ccccc2C=Cc2ccccc21 — adverse events incidence (refers to: skin disorders (SOC); human male; oral, dose not given, AEs, treatment-related, on drug, CTCAE): 13%

Excerpt of the above:
COc1cc(Nc2ncc3c(n2)-c2ccc(Cl)cc2C(c2c(F)cccc2OC)=NC3)ccc1C(=O)O — decreased lymphocyte count incidence (patients; oral, dose not given, grade 3, any attribution, together with: pembrolizumab): 38%
CC(C)[C@H](NC(=O)[C@H](Cc1ccc(O)cc1)NC(=O)[C@H](Cc1ccc(O)cc1)NC(=O)[C@@H]1CCCN1C(=O)[C@H](CCC(=O)O)NC(=O)[C@H](CCC(=O)O)NC(=O)[C@H](Cc1c[nH]c2ccccc12)NC(=O)[C@@H]1CCCN1C(=O)[C@@H](NC(=O)[C@H](CCC(N)=O)NC(=O)c1ccc2c(c1)C(=O)OC21c2ccc(O)cc2Oc2cc(O)ccc21)C(C)C)C(=O)N[C@H](C(=O)N[C@@H](CCCCN)C(=O)N[C@@H](CCCCN)C(=O)N[C@@H](CO)C(=O)N[C@@H](CO)C(=O)NCC(=O)NCC(N)=O)C(C)C — plasma concentration (human, plasma; intravenous infusion, 400 mg, 2 h): 193 ng/mL
CCc1c2c(nc3ccc(OC(=O)N4CCC(N5CCCCC5)CC4)cc13)-c1cc3c(c(=O)n1C2)COC(=O)[C@]3(O)CC — tissue concentration (mouse FVB, colon; intraperitoneal, 50 mg/kg, 24 h): 17100 ± 5050 ng/g
